# Experimental data gathered from unrelated publications.
# tmk: Thymidylate kinase (tmk, Mycobacterium tuberculosis, UniProt P9WKE1)
# Chain of UniProt P9WKE1 (whole entry, looked up): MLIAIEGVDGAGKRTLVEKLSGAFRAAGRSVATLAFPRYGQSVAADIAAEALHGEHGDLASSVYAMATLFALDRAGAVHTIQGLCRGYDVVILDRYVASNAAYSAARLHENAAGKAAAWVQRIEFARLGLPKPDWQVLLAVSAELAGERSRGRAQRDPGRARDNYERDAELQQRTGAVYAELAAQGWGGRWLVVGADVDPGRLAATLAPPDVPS
# Htr2c: 5-hydroxytryptamine receptor 2C (Htr2c, Mus musculus, UniProt P34968)
# Chain of UniProt P34968 (whole entry, looked up): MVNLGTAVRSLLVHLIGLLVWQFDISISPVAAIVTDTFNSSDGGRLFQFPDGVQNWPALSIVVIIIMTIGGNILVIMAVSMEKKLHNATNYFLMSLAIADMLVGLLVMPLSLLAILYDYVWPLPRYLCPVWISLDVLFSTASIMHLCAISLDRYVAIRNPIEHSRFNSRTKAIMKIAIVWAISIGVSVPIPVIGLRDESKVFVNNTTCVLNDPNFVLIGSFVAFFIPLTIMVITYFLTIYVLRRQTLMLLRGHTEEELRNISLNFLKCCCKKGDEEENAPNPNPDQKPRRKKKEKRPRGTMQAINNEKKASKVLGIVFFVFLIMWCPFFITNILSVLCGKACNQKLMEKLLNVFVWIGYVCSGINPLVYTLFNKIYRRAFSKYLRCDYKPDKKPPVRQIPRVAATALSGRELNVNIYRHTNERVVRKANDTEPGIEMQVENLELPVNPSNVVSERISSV
# ABL1 E255K phosphorylated: Tyrosine-protein kinase ABL1, phosphorylated (ABL1, Homo sapiens, UniProt P00519, E255K)
# Chain of UniProt P00519 (whole entry, unmodified, looked up): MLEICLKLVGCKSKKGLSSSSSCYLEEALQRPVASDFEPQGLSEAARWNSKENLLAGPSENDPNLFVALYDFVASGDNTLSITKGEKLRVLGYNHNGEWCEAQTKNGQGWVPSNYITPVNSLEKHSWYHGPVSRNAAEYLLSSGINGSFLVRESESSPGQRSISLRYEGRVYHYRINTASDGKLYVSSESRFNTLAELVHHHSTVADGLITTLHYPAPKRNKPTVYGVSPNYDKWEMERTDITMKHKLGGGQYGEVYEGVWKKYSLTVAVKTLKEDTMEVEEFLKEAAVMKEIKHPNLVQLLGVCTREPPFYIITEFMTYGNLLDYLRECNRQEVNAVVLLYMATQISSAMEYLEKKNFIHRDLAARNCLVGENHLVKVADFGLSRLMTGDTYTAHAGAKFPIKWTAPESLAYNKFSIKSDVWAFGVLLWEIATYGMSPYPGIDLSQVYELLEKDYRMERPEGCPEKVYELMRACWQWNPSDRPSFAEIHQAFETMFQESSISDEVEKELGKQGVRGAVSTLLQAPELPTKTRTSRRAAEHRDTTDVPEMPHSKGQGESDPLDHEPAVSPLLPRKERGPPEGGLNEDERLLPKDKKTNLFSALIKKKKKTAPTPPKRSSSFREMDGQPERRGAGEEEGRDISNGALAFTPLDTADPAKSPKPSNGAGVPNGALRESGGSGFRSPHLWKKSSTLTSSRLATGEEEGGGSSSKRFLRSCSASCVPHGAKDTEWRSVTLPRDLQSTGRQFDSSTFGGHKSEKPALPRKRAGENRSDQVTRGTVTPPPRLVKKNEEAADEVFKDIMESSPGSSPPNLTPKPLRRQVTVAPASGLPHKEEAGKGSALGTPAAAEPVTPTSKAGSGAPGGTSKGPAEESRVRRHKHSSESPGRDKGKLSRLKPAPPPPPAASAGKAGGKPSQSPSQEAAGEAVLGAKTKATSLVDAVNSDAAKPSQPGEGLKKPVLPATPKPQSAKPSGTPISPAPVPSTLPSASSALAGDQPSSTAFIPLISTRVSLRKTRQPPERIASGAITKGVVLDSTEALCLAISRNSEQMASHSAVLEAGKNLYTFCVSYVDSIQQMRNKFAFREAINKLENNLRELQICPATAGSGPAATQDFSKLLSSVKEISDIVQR
# TMPRSS2: Transmembrane protease serine 2 (TMPRSS2, Homo sapiens, UniProt O15393)
# Chain of UniProt O15393 (whole entry, looked up): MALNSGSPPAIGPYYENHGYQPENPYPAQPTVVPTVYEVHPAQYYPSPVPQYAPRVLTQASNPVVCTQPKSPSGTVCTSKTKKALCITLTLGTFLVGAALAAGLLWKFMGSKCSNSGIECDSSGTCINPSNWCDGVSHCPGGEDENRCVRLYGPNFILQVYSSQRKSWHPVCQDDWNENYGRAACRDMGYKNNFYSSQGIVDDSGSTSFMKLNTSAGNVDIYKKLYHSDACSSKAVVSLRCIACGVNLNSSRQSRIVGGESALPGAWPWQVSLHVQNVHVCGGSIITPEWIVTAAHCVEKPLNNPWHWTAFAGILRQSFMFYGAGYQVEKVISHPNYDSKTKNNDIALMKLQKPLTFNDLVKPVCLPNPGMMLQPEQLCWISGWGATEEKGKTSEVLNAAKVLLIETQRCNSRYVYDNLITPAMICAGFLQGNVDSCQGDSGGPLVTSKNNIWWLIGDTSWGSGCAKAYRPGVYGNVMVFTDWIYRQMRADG
# PFF0160c: Dihydroorotate dehydrogenase (quinone), mitochondrial (PFF0160c, Plasmodium falciparum, UniProt Q08210)
# Chain of UniProt Q08210 (whole entry, looked up): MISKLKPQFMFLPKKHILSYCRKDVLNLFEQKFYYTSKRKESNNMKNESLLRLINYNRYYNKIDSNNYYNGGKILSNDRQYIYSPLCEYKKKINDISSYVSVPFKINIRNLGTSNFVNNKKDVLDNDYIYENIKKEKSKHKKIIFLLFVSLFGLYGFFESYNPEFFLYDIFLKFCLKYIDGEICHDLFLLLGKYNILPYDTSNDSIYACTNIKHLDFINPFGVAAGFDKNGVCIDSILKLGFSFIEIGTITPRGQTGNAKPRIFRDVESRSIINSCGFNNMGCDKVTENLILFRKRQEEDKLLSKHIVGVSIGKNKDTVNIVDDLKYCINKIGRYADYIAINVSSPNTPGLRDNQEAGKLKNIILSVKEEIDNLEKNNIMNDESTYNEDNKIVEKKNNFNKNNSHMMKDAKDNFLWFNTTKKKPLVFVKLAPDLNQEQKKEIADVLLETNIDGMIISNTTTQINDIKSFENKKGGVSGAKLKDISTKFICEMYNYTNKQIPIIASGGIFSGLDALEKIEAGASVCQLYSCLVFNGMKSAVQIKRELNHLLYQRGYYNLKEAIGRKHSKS
# Chain of UniProt P51617 (whole entry, looked up): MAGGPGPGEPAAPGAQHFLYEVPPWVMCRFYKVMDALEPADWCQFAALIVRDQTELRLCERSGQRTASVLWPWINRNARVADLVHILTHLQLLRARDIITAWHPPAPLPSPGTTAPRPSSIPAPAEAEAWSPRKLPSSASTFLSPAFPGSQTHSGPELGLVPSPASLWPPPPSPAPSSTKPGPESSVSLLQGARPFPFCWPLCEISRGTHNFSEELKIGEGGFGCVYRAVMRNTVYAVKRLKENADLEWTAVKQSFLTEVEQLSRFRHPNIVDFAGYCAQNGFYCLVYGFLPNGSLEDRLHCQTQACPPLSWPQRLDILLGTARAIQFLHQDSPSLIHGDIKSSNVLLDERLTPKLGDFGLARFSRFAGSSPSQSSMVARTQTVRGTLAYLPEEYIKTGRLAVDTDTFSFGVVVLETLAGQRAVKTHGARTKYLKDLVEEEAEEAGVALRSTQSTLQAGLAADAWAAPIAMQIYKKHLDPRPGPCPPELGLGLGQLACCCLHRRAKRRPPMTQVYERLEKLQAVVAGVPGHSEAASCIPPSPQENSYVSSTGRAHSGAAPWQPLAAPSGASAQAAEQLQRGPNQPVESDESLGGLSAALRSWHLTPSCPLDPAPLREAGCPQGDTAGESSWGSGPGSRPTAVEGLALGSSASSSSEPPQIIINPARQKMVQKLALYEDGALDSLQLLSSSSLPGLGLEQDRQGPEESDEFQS
# Chain of UniProt P42680 (whole entry, looked up): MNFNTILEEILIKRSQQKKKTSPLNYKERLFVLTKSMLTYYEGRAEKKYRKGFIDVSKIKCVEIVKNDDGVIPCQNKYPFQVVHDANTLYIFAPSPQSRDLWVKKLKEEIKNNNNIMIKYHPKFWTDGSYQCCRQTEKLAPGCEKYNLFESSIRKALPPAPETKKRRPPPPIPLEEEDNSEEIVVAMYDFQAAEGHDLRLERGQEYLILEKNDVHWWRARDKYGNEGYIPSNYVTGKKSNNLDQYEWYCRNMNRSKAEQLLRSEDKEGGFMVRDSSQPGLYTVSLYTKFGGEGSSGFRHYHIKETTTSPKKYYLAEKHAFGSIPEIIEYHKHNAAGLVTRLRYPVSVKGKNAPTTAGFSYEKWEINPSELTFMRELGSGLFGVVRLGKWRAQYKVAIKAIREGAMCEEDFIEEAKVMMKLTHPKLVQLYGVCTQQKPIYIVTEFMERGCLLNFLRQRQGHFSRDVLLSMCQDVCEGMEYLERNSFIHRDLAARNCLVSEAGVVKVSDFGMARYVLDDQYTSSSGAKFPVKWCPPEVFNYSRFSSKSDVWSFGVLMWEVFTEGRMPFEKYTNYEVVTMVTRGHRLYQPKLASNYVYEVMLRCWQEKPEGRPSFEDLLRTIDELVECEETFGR
# Chain of UniProt P35363 (whole entry, looked up): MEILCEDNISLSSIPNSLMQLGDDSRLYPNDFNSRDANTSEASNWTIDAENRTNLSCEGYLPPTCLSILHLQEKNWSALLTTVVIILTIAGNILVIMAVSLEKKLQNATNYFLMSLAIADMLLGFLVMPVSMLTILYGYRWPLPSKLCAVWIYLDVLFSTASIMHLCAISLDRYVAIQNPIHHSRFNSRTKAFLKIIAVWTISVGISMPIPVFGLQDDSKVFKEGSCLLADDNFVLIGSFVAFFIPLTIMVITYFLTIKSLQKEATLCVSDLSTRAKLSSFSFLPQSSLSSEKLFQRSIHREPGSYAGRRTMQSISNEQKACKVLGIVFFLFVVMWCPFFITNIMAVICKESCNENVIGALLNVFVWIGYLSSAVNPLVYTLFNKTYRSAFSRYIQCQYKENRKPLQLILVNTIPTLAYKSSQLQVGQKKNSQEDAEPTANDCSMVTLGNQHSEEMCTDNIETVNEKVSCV
SMILES,tested on,assay,test system,conditions,endpoint,value
CCOC(=O)C1=C(C)NC(=NN=c2[nH]c3ccccc3[nH]c2=O)NC1c1ccc(F)cc1 (stereo not drawn),tmk,"enzyme activity, inhibitor, absorbance",,1 µg/mL,inhibition,58.8%
COc1ncccc1-c1cnn2ccc(N3CCN(C(=O)OC(C)C)CC3)nc12,"Tyrosine-protein kinase Tec (TEC, Homo sapiens, UniProt P42680)","binding, competition with immobilised ligand",,1 µM,remaining binding,90%
Cl.NS(=O)(=O)c1ccc(C(=O)N[C@H]2CC[C@@]3(O)[C@H]4Cc5ccc(O)c6c5[C@@]3(CCN4CC3CC3)[C@H]2O6)s1,HEK293,"GTPγS binding, agonist, radiometric",,,Emax,31.7%
COc1cc(CCNCc2ccccc2OC)c(OC)cc1Br,Htr2c,"G protein activation, agonist, BRET",,,Emax,107%
C#Cc1n[nH]c2c(-c3cn([C@@H](C)c4ccccn4)c(=O)[nH]c3=O)cc(F)cc12,"Interleukin-1 receptor-associated kinase 1 (IRAK1, Homo sapiens, UniProt P51617)","enzyme activity, inhibitor",,0.1 µM,inhibition,11.5%
COc1cc(CCNC(C)c2ccccc2O)c(OC)cc1C#N (stereo not drawn),"5-hydroxytryptamine receptor 2C (HTR2C, Homo sapiens, UniProt P28335)","G protein activation, agonist, BRET",,,Emax,123%
COc1ccc(C(=O)N[C@H]2CC[C@@]3(O)[C@H]4Cc5ccc(O)c6c5[C@@]3(CCN4CC3CC3)[C@H]2O6)s1.Cl,HEK293,"GTPγS binding, agonist, radiometric",,,Emax,13.4%
Nc1ncc(-c2nc(N3CCOCC3)nc(N3CCOCC3)n2)c(C(F)F)n1,ABL1 E255K phosphorylated,"binding, competition with immobilised ligand",,10 µM,remaining binding,79%
[2H]c1c([2H])c([C@]2([2H])CCCN2C(=O)C(C)(C)Oc2ccc3cn[nH]c3c2)c([2H])c([2H])c1C([2H])([2H])[2H],"Tyrosine-protein kinase Lyn (LYN, Homo sapiens, UniProt P07948)","binding, competition with immobilised ligand",,1 µM,remaining binding,62%
CCC(C)[C@H](N)C(=O)N[C@@H](CCC(N)=O)C(=O)N[C@@H](CO)C(=O)N[C@@H](CCCNC(=N)N)C(=O)c1nc2ccccc2s1 (stereo partly drawn),TMPRSS2,"enzyme activity, inhibitor",,1 nM,activity vs control,99%
CCOC(=O)C1=C(C)NC(=O)NC1c1ccc([N+](=O)[O-])o1 (stereo not drawn),tmk,"enzyme activity, inhibitor, absorbance",,10 µg/mL,inhibition,81.3%
Cc1nc2c(=O)sc3ccccc3c2n1Cc1ccccc1,PFF0160c,"enzyme activity, inhibitor, absorbance",,,IC50,834 nM
N=C(N)NCCCCC(=O)N[C@@H](CCC(N)=O)C(=O)N[C@@H](Cc1cscn1)C(=O)N[C@@H](CCCNC(=N)N)C(=O)c1nc2ccccc2s1,TMPRSS2,"enzyme activity, inhibitor",,1 nM,activity vs control,72%
Cl.O=C(N[C@H]1CC[C@@]2(O)[C@H]3Cc4ccc(O)c5c4[C@@]2(CCN3CC2CC2)[C@H]1O5)c1ccc([N+](=O)[O-])s1,HEK293,"GTPγS binding, agonist, radiometric",,,Emax,30.7%
N=C(N)NCCC[C@H](N)C(=O)N[C@@H](CCC(N)=O)C(=O)N[C@@H](CCc1ccccc1)C(=O)N[C@H](CCCNC(=N)N)C(=O)c1nc2ccccc2s1,TMPRSS2,"enzyme activity, inhibitor",,1 nM,activity vs control,27%
O=c1cc(NCCCNCc2scc(I)c2I)[nH]c2ccccc12,PFF0160c,"enzyme activity, inhibitor, absorbance",,,IC50,892 nM
COc1cc(CCN)c(OC)cc1C#N,"5-hydroxytryptamine receptor 2A (Htr2a, Mus musculus, UniProt P35363)","G protein activation, agonist, BRET",,,Emax,89%
Cc1nn(C)cc1-c1nc2c(N3CCN(Cc4ccc(Cl)cc4)CC3)c(Cl)cnc2[nH]1,ABL1 E255K phosphorylated,"binding, competition with immobilised ligand",,1 µM,remaining binding,77%
COC(=O)c1cc(-c2cccc(NC(=S)NC3CCCCC3)c2)on1,Mycolicibacterium fortuitum,"microbial growth, broth dilution",ATCC6841,48 h,MIC,> 64 µg/mL
COc1cc(CCN)c(OC)cc1Br,Htr2c,"G protein activation, agonist, BRET",,,Emax,94%
Cl.O=C(N[C@H]1CC[C@@]2(O)[C@H]3Cc4ccc(O)c5c4[C@@]2(CCN3CC2CC2)[C@H]1O5)c1ccc(F)s1,HEK293,"GTPγS binding, agonist, radiometric",,,Emax,27.3%

# Repeated from above:
SMILES,tested on,assay,test system,conditions,endpoint,value
CCOC(=O)C1=C(C)NC(=NN=c2[nH]c3ccccc3[nH]c2=O)NC1c1ccc(F)cc1 (stereo not drawn),tmk,"enzyme activity, inhibitor, absorbance",,1 µg/mL,inhibition,58.8%
COc1ncccc1-c1cnn2ccc(N3CCN(C(=O)OC(C)C)CC3)nc12,"Tyrosine-protein kinase Tec (TEC, Homo sapiens, UniProt P42680)","binding, competition with immobilised ligand",,1 µM,remaining binding,90%
